Results collected from several papers.
Each numbered part is a random draw from the data of one study; scales do not carry over between parts. “And” joins repeats or separate records; there may be more than shown.
Chain of UniProt Q9BZL6 (whole entry, looked up): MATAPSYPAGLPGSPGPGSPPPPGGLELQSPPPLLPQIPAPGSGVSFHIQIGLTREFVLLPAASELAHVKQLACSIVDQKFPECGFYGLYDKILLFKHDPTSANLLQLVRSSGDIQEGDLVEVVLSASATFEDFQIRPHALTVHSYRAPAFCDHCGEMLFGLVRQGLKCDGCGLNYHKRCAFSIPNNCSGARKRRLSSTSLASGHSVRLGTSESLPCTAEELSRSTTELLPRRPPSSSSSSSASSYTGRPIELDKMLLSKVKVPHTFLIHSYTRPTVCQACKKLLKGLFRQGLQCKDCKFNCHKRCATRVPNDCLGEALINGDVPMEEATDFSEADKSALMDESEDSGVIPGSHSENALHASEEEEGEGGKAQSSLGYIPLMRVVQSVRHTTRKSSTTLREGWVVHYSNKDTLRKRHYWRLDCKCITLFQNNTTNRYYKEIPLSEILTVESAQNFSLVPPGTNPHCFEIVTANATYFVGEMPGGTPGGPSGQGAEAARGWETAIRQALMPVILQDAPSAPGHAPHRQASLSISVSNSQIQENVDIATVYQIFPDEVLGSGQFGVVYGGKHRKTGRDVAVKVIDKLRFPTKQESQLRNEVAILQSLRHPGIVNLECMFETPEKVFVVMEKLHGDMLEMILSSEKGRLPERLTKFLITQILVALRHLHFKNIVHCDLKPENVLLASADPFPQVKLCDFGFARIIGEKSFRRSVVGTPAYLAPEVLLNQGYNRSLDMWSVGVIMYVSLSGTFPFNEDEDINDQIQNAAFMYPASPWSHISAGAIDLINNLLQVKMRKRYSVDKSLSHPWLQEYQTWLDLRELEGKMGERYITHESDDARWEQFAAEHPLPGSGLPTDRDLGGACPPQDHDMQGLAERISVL
Chain of UniProt P21709 (whole entry, looked up): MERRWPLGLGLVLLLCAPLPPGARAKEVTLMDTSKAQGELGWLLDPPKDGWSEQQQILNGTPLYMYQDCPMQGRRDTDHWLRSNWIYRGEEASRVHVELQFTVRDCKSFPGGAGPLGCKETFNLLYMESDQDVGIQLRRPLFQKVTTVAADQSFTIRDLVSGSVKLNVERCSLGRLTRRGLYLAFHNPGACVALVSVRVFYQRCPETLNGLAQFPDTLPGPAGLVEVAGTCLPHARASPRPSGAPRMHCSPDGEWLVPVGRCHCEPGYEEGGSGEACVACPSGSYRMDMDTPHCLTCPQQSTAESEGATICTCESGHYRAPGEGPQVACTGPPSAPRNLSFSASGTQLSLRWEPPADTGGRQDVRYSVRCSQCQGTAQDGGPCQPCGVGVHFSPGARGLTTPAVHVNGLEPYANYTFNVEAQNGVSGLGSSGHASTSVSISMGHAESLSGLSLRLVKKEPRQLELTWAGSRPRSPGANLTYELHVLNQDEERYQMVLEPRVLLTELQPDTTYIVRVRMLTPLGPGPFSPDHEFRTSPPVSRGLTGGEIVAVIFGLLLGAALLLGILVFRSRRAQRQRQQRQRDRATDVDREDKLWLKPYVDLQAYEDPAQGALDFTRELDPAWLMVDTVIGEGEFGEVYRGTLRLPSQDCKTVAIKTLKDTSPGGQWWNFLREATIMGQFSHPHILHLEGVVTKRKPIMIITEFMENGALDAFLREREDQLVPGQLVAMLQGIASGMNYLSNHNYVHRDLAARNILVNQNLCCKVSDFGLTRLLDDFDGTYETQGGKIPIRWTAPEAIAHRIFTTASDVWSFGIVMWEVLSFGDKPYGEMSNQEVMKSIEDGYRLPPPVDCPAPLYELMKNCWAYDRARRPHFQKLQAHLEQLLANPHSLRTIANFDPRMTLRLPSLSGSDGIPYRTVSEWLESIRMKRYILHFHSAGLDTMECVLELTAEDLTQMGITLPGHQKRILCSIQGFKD

Sample 1 — action: inhibitor; setting: literature data
Target: Synaptic vesicular amine transporter (SLC18A2, Homo sapiens, UniProt Q05940)
Chain of UniProt Q05940 (whole entry, looked up): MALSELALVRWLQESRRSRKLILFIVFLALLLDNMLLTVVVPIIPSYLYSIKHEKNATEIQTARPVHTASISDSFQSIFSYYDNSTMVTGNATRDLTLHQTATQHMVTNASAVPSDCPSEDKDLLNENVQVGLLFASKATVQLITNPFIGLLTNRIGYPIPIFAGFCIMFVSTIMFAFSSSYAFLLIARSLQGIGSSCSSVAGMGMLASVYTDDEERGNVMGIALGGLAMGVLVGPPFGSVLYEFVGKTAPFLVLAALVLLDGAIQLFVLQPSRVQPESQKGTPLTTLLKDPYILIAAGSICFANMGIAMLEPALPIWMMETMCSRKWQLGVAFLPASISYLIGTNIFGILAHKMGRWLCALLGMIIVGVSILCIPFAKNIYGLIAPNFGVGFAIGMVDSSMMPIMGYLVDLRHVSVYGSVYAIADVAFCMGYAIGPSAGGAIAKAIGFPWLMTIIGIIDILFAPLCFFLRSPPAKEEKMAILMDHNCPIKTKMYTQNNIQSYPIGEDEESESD
Compound | IC50
Cc1ncc2n1-c1ccc(Cl)cc1C(c1ccccc1F)=NC2 | > 10 µM
CN[C@@H](C)Cc1ccccc1 | 13.3 µM
COc1ccc(CC2c3cc(OC)c(OC)cc3CCN2C)cc1OC (stereo not drawn) | > 10 µM
N#Cc1ccccc1-c1cc(-c2ccccn2)cn(-c2ccccc2)c1=O | > 10 µM
COc1cc2c(cc1OC)[C@H](C)NCC2 | > 10 µM
CC(CCc1ccccc1)NC(C)C(O)c1ccc(O)cc1 (stereo not drawn) | 0.35 µM
C[N+]1(C)[C@@H]2C[C@@H](OC(=O)[C@H](CO)c3ccccc3)C[C@H]1[C@@H]1O[C@@H]12 | > 10 µM

Sample 2 — sample: plasma
SMILES: O=C1CCC(N2Cc3c(ccc4c3OCC43CCN(Cc4ccccc4)CC3)C2=O)C(=O)N1 (stereo not drawn)
system | conditions | concentration [ng/mL]
male CD-1 mouse | intravenous, 1 mg/kg, 6 h | 8.4
male Sprague-Dawley rat | intravenous, 1 mg/kg, 15 min | 354
male Sprague-Dawley rat | intravenous, 1 mg/kg, 4.98 min | 373
male Sprague-Dawley rat | oral, 3 mg/kg, 2 h | 182
male CD-1 mouse | oral, 3 mg/kg, 2 h | 230
male Sprague-Dawley rat | oral, 3 mg/kg, 8 h | 31
male CD-1 mouse | oral, 3 mg/kg, 1 h | 370
male CD-1 mouse | oral, 3 mg/kg, 8 h | 24.8
male Sprague-Dawley rat | oral, 3 mg/kg, 4 h | 239
male CD-1 mouse | intravenous, 1 mg/kg, 30 min | 183
male CD-1 mouse | intravenous, 1 mg/kg, 2 h | 58.6
male CD-1 mouse | oral, 3 mg/kg, 4 h | 101
male CD-1 mouse | oral, 3 mg/kg, 4.98 min | 83.1
male CD-1 mouse | intravenous, 1 mg/kg, 8 h | 5.07
male CD-1 mouse | oral, 3 mg/kg, 15 min | 258
male CD-1 mouse | intravenous, 1 mg/kg, 4 h | 21.8
male CD-1 mouse | oral, 3 mg/kg, 24 h | 1.35

Sample 3 — read-out: enzyme activity; action: inhibitor; tested at: 77 µM; relative to: untreated
Target: DNA polymerase theta, ATPase domain (POLQ, Homo sapiens, UniProt O75417)
Chain of UniProt O75417 (whole entry, unmodified, looked up): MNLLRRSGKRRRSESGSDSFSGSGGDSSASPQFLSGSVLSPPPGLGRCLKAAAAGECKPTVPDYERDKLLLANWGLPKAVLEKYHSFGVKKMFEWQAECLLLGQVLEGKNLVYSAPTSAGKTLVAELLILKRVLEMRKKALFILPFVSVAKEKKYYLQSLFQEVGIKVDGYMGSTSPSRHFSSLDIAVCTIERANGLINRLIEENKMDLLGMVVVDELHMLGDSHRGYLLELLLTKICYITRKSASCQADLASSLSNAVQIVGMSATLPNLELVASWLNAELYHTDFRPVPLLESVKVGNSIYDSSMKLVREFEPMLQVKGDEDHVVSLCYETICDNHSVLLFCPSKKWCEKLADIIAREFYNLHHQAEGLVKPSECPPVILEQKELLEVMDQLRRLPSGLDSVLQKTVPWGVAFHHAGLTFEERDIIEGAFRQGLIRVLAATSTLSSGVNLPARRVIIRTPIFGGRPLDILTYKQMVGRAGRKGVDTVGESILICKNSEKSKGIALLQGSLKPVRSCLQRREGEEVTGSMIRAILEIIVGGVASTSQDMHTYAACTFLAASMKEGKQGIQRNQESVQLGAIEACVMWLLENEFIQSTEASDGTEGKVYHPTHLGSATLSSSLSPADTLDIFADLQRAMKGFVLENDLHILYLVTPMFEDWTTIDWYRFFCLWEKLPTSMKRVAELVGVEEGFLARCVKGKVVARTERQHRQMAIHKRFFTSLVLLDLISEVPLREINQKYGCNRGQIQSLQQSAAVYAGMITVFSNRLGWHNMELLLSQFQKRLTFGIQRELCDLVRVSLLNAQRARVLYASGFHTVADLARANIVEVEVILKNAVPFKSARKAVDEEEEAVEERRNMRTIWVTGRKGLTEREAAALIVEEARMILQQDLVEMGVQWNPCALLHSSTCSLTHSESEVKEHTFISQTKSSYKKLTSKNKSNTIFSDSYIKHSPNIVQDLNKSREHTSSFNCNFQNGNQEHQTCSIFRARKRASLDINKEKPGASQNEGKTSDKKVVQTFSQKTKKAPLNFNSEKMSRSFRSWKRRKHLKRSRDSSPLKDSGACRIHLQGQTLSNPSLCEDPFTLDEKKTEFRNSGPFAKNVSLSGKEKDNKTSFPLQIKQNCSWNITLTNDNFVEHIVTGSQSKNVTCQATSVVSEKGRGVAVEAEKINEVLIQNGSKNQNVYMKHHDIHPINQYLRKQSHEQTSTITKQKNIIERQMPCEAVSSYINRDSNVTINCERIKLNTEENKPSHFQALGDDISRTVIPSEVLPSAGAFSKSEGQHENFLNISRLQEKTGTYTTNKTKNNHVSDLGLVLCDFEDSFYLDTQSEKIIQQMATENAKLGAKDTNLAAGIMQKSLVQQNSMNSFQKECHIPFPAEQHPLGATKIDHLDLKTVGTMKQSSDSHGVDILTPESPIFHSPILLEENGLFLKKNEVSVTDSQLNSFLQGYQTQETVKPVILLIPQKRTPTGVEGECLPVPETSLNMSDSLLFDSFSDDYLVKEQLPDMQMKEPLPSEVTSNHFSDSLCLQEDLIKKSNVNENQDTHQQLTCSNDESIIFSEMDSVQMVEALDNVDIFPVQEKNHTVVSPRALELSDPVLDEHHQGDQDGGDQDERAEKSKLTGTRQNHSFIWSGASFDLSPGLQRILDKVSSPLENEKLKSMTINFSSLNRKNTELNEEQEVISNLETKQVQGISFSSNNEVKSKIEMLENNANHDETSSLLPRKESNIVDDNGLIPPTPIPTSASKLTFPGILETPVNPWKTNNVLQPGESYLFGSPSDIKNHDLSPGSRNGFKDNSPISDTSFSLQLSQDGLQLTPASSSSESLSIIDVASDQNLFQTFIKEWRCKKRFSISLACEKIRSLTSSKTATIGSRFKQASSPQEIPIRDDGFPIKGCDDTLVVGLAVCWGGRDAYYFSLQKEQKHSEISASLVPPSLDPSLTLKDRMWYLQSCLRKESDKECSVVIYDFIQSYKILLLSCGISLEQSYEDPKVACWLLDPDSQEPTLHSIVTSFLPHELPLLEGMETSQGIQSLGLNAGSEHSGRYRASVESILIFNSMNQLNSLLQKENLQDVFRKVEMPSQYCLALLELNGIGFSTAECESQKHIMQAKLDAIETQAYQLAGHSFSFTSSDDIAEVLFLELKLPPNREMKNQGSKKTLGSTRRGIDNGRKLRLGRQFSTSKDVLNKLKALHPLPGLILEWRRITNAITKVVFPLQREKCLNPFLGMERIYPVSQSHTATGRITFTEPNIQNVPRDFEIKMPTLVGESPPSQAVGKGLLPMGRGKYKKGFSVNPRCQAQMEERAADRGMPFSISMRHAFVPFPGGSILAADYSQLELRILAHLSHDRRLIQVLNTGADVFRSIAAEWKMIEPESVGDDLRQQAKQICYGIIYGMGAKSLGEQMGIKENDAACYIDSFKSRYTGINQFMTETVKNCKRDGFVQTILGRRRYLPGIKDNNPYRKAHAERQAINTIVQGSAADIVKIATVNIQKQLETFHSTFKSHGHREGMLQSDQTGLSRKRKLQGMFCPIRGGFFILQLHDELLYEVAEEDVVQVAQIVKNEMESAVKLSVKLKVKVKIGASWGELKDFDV
SMILES | remaining activity
C/C=C1\C[C@@H](C)[C@](O)(CO)C(=O)OCC2=CCN3CC[C@@H](OC1=O)[C@@H]23 | 95.3%
c1ccc2c(c1)OCC(C1=NCCN1)O2 (stereo not drawn) | 105%
C[C@H]1C(=O)O[C@@H]2CCN3CC=C(COC(=O)[C@](C)(O)[C@]1(C)O)[C@H]23 | 103%
NC(=O)COc1c(F)cc(SCCNS(=O)(=O)c2ccccc2)cc1F | 97%
C[C@]12CCC(=O)C(O)=C1CC[C@@H]1[C@@H]2CC[C@]2(C)C(=O)CC[C@@H]12 | 102%
O=C1CCCN1CC#CCN1CCCC1 | 102%
CCOC(=O)c1cncn1[C@H](C)c1ccccc1 | 94.8% and 96.3%
CCCN1CCC[C@@H]2Cc3nc(N)ncc3C[C@H]21 | 101%

Sample 4 — read-out: enzyme activity; action: inhibitor; tested at: 0.5 µM; relative to: control
SMILES: COc1ccc2c(c[n+](C)c3c4cc5c(cc4ccc23)OCO5)c1OC
target | remaining activity [%]
STK26 (Homo sapiens, UniProt Q9P289) | 89.4
STK24 (Homo sapiens, UniProt Q9Y6E0) | 84.2
TYK2 (Homo sapiens, UniProt P29597) | 108
MAP3K11 (Homo sapiens, UniProt Q16584) | 95
EPHA1 (Homo sapiens, UniProt P21709) | 98.3
DAPK3 (Homo sapiens, UniProt O43293) | 102
PRKD2 (Homo sapiens, UniProt Q9BZL6) | 90.1
Protein kinase C beta type, isoform beta-II (PRKCB, Homo sapiens, UniProt P05771) | 100
NUAK2 (Homo sapiens, UniProt Q9H093) | 98.9
MAPKAPK5 (Homo sapiens, UniProt Q8IW41) | 83.5
